# Experimental data of several laboratories.
# Compare with care: the assays were run in different laboratories.
# Read-out: enzyme activity
# Action: inhibitor
# CTSL: Procathepsin L (CTSL, Homo sapiens, UniProt P07711)
# UniProt P07711, sequence (whole entry, looked up): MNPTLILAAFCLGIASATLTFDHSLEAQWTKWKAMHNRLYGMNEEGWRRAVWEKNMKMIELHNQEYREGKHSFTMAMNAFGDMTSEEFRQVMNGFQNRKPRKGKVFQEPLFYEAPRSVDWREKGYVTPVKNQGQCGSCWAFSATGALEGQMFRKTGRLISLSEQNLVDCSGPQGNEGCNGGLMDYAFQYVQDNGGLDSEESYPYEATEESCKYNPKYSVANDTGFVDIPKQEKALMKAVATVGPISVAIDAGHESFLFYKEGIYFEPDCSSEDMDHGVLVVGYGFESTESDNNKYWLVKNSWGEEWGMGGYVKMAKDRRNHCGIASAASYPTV
# GSK3B: Glycogen synthase kinase-3 beta (GSK3B, Homo sapiens, UniProt P49841)
# UniProt P49841, sequence (whole entry, looked up): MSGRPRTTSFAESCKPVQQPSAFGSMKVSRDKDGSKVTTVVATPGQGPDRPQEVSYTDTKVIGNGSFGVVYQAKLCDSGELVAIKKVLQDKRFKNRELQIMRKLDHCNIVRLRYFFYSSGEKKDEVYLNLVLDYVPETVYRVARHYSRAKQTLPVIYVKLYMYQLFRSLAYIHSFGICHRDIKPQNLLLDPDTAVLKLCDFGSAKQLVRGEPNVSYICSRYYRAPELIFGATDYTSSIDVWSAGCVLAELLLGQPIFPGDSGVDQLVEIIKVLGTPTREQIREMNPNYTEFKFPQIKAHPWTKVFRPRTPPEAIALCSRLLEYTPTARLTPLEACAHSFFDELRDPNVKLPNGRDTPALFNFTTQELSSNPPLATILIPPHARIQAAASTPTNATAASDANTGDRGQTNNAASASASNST
# UniProt Q9Y6E0, sequence (whole entry, looked up): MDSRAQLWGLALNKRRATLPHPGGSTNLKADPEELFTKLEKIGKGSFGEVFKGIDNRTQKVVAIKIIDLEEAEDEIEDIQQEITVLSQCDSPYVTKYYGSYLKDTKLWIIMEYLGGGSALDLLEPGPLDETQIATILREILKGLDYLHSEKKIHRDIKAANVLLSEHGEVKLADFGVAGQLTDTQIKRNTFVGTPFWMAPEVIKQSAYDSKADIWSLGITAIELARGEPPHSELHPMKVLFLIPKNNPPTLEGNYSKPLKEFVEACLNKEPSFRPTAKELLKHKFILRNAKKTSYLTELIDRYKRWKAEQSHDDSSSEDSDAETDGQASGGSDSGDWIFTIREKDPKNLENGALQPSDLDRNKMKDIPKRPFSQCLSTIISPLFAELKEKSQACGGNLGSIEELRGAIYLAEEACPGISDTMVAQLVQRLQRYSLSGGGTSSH
# UniProt P11247, sequence (whole entry, looked up): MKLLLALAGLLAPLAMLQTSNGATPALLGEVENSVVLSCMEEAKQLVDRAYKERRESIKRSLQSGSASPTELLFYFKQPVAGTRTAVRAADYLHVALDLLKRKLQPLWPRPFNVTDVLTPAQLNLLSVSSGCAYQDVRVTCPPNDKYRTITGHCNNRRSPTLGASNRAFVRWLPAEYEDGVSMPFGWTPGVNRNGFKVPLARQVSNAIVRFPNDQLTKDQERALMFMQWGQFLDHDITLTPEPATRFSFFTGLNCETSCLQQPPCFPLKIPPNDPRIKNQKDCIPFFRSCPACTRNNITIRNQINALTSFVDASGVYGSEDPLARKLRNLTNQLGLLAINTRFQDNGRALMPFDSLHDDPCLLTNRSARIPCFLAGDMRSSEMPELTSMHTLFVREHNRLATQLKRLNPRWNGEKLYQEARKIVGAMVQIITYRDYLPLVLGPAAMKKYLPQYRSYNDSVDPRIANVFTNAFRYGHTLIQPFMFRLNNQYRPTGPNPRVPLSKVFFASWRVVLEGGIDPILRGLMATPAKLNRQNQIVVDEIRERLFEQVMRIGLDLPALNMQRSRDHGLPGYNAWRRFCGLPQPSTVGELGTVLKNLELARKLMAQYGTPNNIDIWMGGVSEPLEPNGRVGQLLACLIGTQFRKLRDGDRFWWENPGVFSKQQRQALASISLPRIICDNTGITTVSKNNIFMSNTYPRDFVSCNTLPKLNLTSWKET
# UniProt Q8IU80, sequence (whole entry, looked up): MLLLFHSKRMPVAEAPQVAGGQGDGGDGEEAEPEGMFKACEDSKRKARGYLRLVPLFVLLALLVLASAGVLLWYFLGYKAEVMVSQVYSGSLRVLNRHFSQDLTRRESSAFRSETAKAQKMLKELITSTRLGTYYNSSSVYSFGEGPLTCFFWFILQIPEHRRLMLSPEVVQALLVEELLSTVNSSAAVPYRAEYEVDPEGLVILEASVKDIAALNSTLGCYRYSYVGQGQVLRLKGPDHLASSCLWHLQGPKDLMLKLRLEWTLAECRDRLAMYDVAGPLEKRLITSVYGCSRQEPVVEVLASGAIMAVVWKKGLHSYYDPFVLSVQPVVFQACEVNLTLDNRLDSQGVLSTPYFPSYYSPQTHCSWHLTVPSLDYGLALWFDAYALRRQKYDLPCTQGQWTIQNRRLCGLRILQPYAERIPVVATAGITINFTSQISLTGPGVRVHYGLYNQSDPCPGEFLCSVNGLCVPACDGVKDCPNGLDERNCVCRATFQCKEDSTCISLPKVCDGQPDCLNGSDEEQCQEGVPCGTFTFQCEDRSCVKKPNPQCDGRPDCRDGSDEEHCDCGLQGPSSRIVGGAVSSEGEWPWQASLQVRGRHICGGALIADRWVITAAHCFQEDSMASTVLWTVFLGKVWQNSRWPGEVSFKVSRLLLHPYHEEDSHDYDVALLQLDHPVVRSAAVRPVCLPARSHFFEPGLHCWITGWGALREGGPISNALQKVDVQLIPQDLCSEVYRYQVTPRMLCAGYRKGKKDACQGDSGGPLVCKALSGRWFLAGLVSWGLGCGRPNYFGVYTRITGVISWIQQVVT
# UniProt P78368, sequence (whole entry, looked up): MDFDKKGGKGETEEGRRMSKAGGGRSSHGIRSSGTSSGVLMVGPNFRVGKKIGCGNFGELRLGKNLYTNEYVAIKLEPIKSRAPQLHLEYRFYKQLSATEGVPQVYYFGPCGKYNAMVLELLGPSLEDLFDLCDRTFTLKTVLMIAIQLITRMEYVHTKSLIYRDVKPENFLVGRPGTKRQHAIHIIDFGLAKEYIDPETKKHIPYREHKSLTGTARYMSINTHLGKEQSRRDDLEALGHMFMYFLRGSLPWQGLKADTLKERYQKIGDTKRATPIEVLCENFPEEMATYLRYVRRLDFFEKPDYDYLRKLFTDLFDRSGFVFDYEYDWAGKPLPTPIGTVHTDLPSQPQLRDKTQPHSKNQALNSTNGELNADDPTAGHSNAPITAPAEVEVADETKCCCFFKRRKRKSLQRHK
# UniProt Q8NI60, sequence (whole entry, looked up): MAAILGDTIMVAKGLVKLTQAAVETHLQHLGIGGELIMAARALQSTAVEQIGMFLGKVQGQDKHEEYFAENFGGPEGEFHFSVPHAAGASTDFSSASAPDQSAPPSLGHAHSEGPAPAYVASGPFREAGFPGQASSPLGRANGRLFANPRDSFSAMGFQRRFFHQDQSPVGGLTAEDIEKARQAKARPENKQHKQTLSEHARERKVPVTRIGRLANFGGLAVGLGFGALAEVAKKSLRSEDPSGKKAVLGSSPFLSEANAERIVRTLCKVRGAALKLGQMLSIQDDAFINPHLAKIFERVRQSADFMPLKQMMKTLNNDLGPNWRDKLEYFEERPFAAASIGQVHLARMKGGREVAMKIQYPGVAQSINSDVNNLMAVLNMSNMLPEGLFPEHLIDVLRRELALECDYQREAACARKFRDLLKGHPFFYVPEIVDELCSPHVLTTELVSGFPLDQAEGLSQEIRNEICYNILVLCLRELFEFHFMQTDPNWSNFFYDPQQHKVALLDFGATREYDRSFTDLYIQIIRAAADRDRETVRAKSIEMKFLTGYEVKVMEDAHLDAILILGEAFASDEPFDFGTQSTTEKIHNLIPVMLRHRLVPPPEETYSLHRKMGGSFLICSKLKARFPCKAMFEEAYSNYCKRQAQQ
# UniProt O75385, sequence (whole entry, looked up): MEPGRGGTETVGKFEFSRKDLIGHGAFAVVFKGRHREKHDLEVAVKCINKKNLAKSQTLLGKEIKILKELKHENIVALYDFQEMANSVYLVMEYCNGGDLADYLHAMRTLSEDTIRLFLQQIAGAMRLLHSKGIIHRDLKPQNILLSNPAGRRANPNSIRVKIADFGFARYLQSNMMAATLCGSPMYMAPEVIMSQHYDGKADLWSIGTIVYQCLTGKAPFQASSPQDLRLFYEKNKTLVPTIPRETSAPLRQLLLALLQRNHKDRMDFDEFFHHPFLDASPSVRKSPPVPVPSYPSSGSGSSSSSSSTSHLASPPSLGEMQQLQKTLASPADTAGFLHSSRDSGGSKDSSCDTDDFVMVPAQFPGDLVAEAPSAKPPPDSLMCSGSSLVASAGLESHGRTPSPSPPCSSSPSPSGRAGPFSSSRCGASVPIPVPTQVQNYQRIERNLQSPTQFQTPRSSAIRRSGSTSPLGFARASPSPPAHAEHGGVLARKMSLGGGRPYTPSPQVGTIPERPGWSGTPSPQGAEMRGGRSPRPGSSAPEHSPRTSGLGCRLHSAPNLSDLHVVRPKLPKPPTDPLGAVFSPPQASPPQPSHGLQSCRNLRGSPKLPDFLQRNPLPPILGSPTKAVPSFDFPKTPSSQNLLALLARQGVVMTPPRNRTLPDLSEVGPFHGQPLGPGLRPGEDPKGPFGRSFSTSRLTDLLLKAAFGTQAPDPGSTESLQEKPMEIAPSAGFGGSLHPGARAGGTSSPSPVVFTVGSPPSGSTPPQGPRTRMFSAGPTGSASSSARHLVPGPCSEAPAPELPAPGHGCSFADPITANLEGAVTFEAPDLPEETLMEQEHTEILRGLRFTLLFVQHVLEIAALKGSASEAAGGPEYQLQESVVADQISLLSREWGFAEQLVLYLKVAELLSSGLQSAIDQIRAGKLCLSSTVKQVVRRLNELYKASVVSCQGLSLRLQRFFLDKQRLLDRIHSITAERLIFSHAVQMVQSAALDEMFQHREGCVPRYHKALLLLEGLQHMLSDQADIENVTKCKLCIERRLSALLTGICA
SMILES,target,assay,conditions,remaining activity [%]
NC(=O)[C@@H](N)Cc1c[nH]c2ccccc12,CTSL,,100 µM,130
NC/C(=C\F)COc1cccc(Cn2c(=S)[nH]c(=O)c3[nH]cnc32)c1,"Myeloperoxidase (Mus musculus, UniProt P11247)",,83 nM,50.4
O=Cc1c[nH]c2ccccc12,CTSL,,100 µM,129
COc1cc(-c2cncc3c2CN(C)Cc2cc(N4CCNCC4)ccc2-3)cc(OC)c1OC,"STK24 (Homo sapiens, UniProt Q9Y6E0)",,1 µM,112
CNc1ncc2c(/C=C/C(=O)N3CCC(OC)CC3)nn(Cc3cccc(C(F)(F)F)c3)c2n1,"CSNK1G2 (Homo sapiens, UniProt P78368)",radiometric,1 µM,106
CC[C@H](C)[C@H](NC(=O)[C@H](CCC(N)=O)NC(=O)[C@H](CC(C)C)NC(=O)[C@H](CCSC)NC(=O)[C@H](CCCCN)NC(=O)[C@H](CO)NC(=O)[C@H](CO)NC(=O)[C@H](CCSC)NC(=O)[C@H](CC(C)C)NC(=O)[C@H](CC(N)=O)NC(=O)[C@@H](NC(=O)[C@@H](NC(=O)[C@H](CO)NC(=O)[C@H](CC(C)C)NC(=O)[C@H](CS)NC(=O)[C@H](CCCNC(=N)N)NC(=O)[C@H](CC(=O)O)NC(=O)[C@H](Cc1c[nH]c2ccccc12)NC(=O)[C@H](Cc1ccccc1)NC(=O)[C@H](C)NC(=O)[C@H](CCC(=O)O)NC(=O)[C@@H](N)CCCCN)C(C)C)[C@@H](C)CC)C(=O)N[C@@H](CC(N)=O)C(=O)N[C@@H](C)C(=O)O,GSK3B,radiometric,"50 µM, 20 min",100
NS(=O)(=O)c1ccc(CNc2ccnc(Nc3cccc(NC(=O)N4CCCC4)c3)n2)cc1,"ULK1 (Homo sapiens, UniProt O75385)",radiometric,1 µM,97
O=c1c2ccccc2[nH]c2ccccc12,CTSL,,100 µM,145
Nc1ncnc2occ(-c3ccc(NC(=O)Nc4cc(C(F)(F)F)ccc4F)cc3)c12,"COQ8A (Homo sapiens, UniProt Q8NI60)",,20 µM,13
N=C(N)NCCC[C@H](NC(=O)C1(NC(=O)[C@H](Cc2cscn2)NC(=O)CCc2ccccc2)CCCC1)C(=O)c1nc2ccccc2s1,"Transmembrane protease serine 6 (Homo sapiens, UniProt Q8IU80)",,0.1 µM,86
O=C(/C=C/c1ccc(O)c(O)c1)c1ccc(O)cc1O,CTSL,,100 µM,1.16
CC[C@H](C)[C@H](NC(=O)[C@H](CCC(N)=O)NC(=O)[C@@H](NC(=O)[C@H](CCSC)NC(=O)[C@H](CCCCN)NC(=O)[C@H](CO)NC(=O)[C@@H](NC(=O)[C@H](CCSC)NC(=O)[C@H](CC(C)C)NC(=O)[C@H](CC(N)=O)NC(=O)[C@@H](NC(=O)[C@@H](NC(=O)[C@H](CO)NC(=O)[C@H](CC(C)C)NC(=O)[C@H](C)NC(=O)[C@H](CCCNC(=N)N)NC(=O)[C@H](CCC(=O)O)NC(=O)[C@H](Cc1ccc(O)cc1)NC(=O)[C@H](Cc1ccccc1)NC(=O)[C@H](C)NC(=O)[C@H](CC(N)=O)NC(=O)[C@@H](N)CCCCN)[C@@H](C)CC)[C@@H](C)CC)[C@@H](C)O)C(C)C)C(=O)N[C@@H](CC(N)=O)C(=O)N[C@H](C(=O)O)C(C)C,GSK3B,radiometric,"250 µM, 20 min",127

# Repeated from above:
SMILES,target,assay,conditions,remaining activity [%]
COc1cc(-c2cncc3c2CN(C)Cc2cc(N4CCNCC4)ccc2-3)cc(OC)c1OC,"STK24 (Homo sapiens, UniProt Q9Y6E0)",,1 µM,112
